Measurements collected from several papers.
Each line is one published result; not all experiments were run side by side. ± marks the error that the study gave.

| system | setting | tissue uptake [%ID/g] | Compound |
| --- | --- | --- | --- |
| female CB-17 SCID mouse, Daudi xenograft, adrenals | intravenous, 6 h, CXCR4 blocking, added: AMD3100 2 mg/kg coinjected | 0.51 ± 0.01 | CN1C(=O)[C@@H](Cc2ccc(O)c(I)c2)NC(=O)CNC(=O)[C@H](Cc2ccc3ccccc3c2)NC(=O)[C@H](CCCNC(=N)N)NC(=O)[C@H]1CCCNC(=O)c1ccc(CNC(=O)CN2CCN(CC(=O)O)CCN(CC(=O)O)CCN(CC(=O)O)CC2)cc1 [lutetium-177 labelled] |
| C57 mouse, female, B16/F1 melanoma, tumor | intravenous, 0.037 MBq, 2 h | 16.1 ± 3.09 | CC(C)[C@H](NC(=O)[C@@H]1CCCN1C(=O)[C@H](CCCNC(=N)N)NC(=O)[C@H](CS)NC(=O)[C@H](Cc1c[nH]c2ccccc12)NC(=O)[C@H](CCCNC(=N)N)NC(=O)[C@@H](Cc1ccccc1)NC(=O)[C@H](Cc1c[nH]cn1)NC(=O)[C@H](CCC(=O)O)NC(=O)[C@H](CS)NC(=O)[C@H](CS)NC(=O)[C@@H]1CC(=O)N[C@@H](CCCNC(=N)N)C(=O)NCC(=O)N[C@@H](CC(=O)O)C(=O)N[C@H](Cc2ccc(O)cc2)C(=O)N1)C(N)=O [technetium-99m labelled] |
| C57 mice with B16/F1 melanoma, spleen | intravenous, 0.037 MBq, 4 h | 0.06 ± 0.04 | CCCC[C@@H]1NC(=O)[C@@H](NC(=O)[C@H](CCC(=O)O)NC(=O)CNC(=O)CN2CCN(CC(=O)O)CCN(CC(=O)O)CCN(CC(=O)O)CC2)CCCCNC(=O)C[C@@H](C(N)=O)NC(=O)[C@H](C(C)C)NC(=O)[C@@H]2CCCN2C(=O)[C@H](CCCNC(=N)N)NC(=O)CNC(=O)[C@H](Cc2c[nH]c3ccccc23)NC(=O)[C@H](CCCNC(=N)N)NC(=O)[C@@H](Cc2ccccc2)NC(=O)[C@H](Cc2c[nH]cn2)NC(=O)[C@H](CCC(=O)O)NC1=O [gallium-67 labelled] |
| male Sprague-Dawley rat, lung | intravenous, 60 min | 0.341 ± 0.024 | O=C(O)C1CN(Cc2ccc(-c3noc(-c4ccc(OCC[18F])c(C(F)(F)F)c4)n3)cc2)C1 |
| athymic nude mice SW1222 xenograft, liver | 12 h post injection, 24 h accumulation interval, added: huA33-TCO pretargeting | 1.33 ± 0.53 | NC12CNCCNCC(NCc3ccc(CNC(=O)CCCC(=O)NCc4ccc(-c5nncnn5)cc4)cc3)(CNCCNC1)CNCCNC2.[64Cu+2] |
| rat, blood | 60 min | 0.19 ± 0.01 | CCN(CC)c1ccc2c(-c3ccccc3C(=O)OCCOCCOCC[18F])c3ccc(=[N+](CC)CC)cc-3oc2c1 |
| mice with Hec50 tumour xenograft, pituitary | 0.5 h | 0.88 ± 0.06 | O=C([O-])CN1CCN(CC(=O)[O-])CCN(CC(=O)NCCc2ccc3c(c2)C2C=CCC2C(c2cc4c(cc2Br)OCO4)N3)CCN(CC(=O)[O-])CC1.[111In+3] (centres unmarked) |
| female C57 mouse, B16/F1 melanoma, tumor | intravenous, 0.037 MBq, 24 h | 5.96 ± 0.36 | CCCC[C@H](NC(=O)CNC(=O)CNC(=O)CN1CCN(CC(=O)O)CCN(CC(=O)O)CCN(CC(=O)O)CC1)C(=O)N[C@H]1CC(=O)NCCCC[C@@H](C(N)=O)NC(=O)[C@H](Cc2c[nH]c3ccccc23)NC(=O)[C@H](CCCNC(=N)N)NC(=O)[C@@H](Cc2ccccc2)NC(=O)[C@H](Cc2c[nH]cn2)NC1=O [copper-64 labelled] |
| C57 mouse, female, B16/F1 melanoma, tumor | intravenous, 0.037 MBq, 4 h | 7.99 ± 1.05 | CC(C)[C@H](NC(=O)[C@@H]1CCCN1C(=O)[C@H](CCCNC(=N)N)NC(=O)[C@H](CS)NC(=O)[C@H](Cc1c[nH]c2ccccc12)NC(=O)[C@H](CCCNC(=N)N)NC(=O)[C@@H](Cc1ccccc1)NC(=O)[C@H](Cc1c[nH]cn1)NC(=O)[C@H](CCC(=O)O)NC(=O)[C@H](CS)NC(=O)[C@H](CS)NC(=O)CNC(=O)[C@@H]1CC(=O)N[C@@H](CCCNC(=N)N)C(=O)NCC(=O)N[C@@H](CC(=O)O)C(=O)N[C@H](Cc2ccc(O)cc2)C(=O)N1)C(N)=O [technetium-99m labelled] |
| female C57 mouse, B16/F1 melanoma, stomach | intravenous, 0.037 MBq, 2 h | 0.76 ± 0.27 | CCCC[C@H](NC(=O)CNC(=O)CNC(=O)CN1CCN(CC(=O)O)CCN(CC(=O)O)CC1)C(=O)N[C@H]1CC(=O)NCCCC[C@@H](C(N)=O)NC(=O)[C@H](Cc2c[nH]c3ccccc23)NC(=O)[C@H](CCCNC(=N)N)NC(=O)[C@@H](Cc2ccccc2)NC(=O)[C@H](Cc2c[nH]cn2)NC1=O [copper-64 labelled] |
| female C57 mice, B16/F1 melanoma, pancreas | intravenous, 0.037 MBq, 0.5 h | 0.83 ± 0.26 | CCCC[C@H](NC(=O)CNC(=O)CNC(=O)CN1CCN(CC(=O)O)CCN(CC(=O)O)CCN(CC(=O)O)CC1)C(=O)N[C@H]1CC(=O)NCCCC[C@@H](C(N)=O)NC(=O)[C@H](Cc2c[nH]c3ccccc23)NC(=O)[C@H](CCCNC(=N)N)NC(=O)[C@@H](Cc2ccccc2)NC(=O)[C@H](Cc2c[nH]cn2)NC1=O [gallium-67 labelled] |

Repeated from above:
| system | setting | tissue uptake [%ID/g] | Compound |
| --- | --- | --- | --- |
| C57 mouse, female, B16/F1 melanoma, tumor | intravenous, 0.037 MBq, 4 h | 7.99 ± 1.05 | CC(C)[C@H](NC(=O)[C@@H]1CCCN1C(=O)[C@H](CCCNC(=N)N)NC(=O)[C@H](CS)NC(=O)[C@H](Cc1c[nH]c2ccccc12)NC(=O)[C@H](CCCNC(=N)N)NC(=O)[C@@H](Cc1ccccc1)NC(=O)[C@H](Cc1c[nH]cn1)NC(=O)[C@H](CCC(=O)O)NC(=O)[C@H](CS)NC(=O)[C@H](CS)NC(=O)CNC(=O)[C@@H]1CC(=O)N[C@@H](CCCNC(=N)N)C(=O)NCC(=O)N[C@@H](CC(=O)O)C(=O)N[C@H](Cc2ccc(O)cc2)C(=O)N1)C(N)=O [technetium-99m labelled] |
